Assay results of several laboratories.
Compare with care: the assays were run in different laboratories. “And” joins repeats or separate records; there may be more than shown. ± marks the error that the study gave.

Structure (SMILES) | cell line | assay | conditions | scale | quantity | result
CN(C)c1ccc(C(=O)NCCCCCC(=O)NO)cc1 | OCI-Ly1 | – | 0.1 µM, 120 h | – | viability | 177%
CC/C(=N\NC(=O)C(C)Nc1ccccc1)c1ccc(O)c(C)c1O (stereo not drawn) | SK-OV-3 | Western blot, refers to: YAP | 10 µM, 1 h, 3D gellan gum culture, unit not given | relative to: β-actin | protein level | 1.01 ± 0.19
Nc1nc(=S)c2[nH]cnc2[nH]1 | OCI-Ly1 | – | 0.1 µM, 120 h | – | viability | 186%
C[C@H](Nc1ccc2c(c1)OCCn1cc(N3C(=O)OC[C@H]3C(F)F)nc1-2)C(N)=O | KPL4 | CellTiter-Glo | 120 h | – | Hill coefficient GR curve | 1.1
Clc1ccc(N/N=C(\c2ccccc2)c2ccccn2)nc1 | OCI-Ly1 | – | 0.5 µM, 120 h | – | viability | 0.519%
[Cl-].[Cl-].[Ru+2].c1cnc2c(c1)ccc1cccnc12.c1cnc2c(c1)ccc1cccnc12.c1csc(-c2ccc(-c3ccc(-c4ccc(-c5nc6c7cccnc7c7ncccc7c6[nH]5)s4)s3)s2)c1 | SK-MEL-28 | – | normoxia, together with: red light 633 nm, 100 J/cm2 | – | phototherapeutic index | 5
Cc1ccc(CNC(=O)Cn2cc(CSc3nc4ccccc4[nH]3)nn2)cc1 | HEK293 | MTT | 125 ppm | – | cytotoxicity | 89%
CCCCN1CCN(c2ccc3[nH]c(-c4ccc5[nH]c(-c6cc(OC)c(OC)c(OC)c6)nc5c4)nc3c2)CC1 | 786-0 | cell growth, NCI-60 SRB | 10 µM, 48 h | – | growth percent | 50.6%
CCN(CCO)CCCC(C)Nc1ccnc2cc(Cl)ccc12 (stereo not drawn) | hiPSC-derived ventricular cardiomyocytes | perforated patch voltage clamp | 10 µM, 3-5 min, unit not given | relative to: pre-drug control | steady funny current | 0.98 and 1 and 0.94 and 1.14 and 0.91
O=[N+]([O-])c1ccc(O)cc1 | human cells | reporter gene, agonist, luciferase reporter | – | relative to: positive control | fitted curve top | 0%
CCCCCCCC(=O)c1cc(OC)c(OC)c(OC)c1CC(=O)OCC | COS-7 | – | 10 µM, 24 h, 0.1% DMSO, unit not given | relative to: vehicle control | necrotic cells | 1.04 ± 0.25
C=CCNC1=C2C[C@@H](C)C[C@H](OC)[C@H](O)[C@@H](C)/C=C(\C)[C@H](OC(N)=O)[C@@H](OC)/C=C\C=C(/C)C(=O)NC(=CC1=O)C2=O | human cells | plate-normalised | concentration not given, hit retest | relative to: vehicle controls, SDs below control | MyBP-C level change | 5.71 SD
Nc1ncn([C@H]2C[C@H](O)[C@@H](CO)O2)c(=O)n1 | OCI-Ly1 | – | 1 µM, 120 h | – | viability | 18.2%
CC(C)[C@H](N)C(=O)N1CCC[C@H]1B(O)O | MV4-11 | annexin V/PI flow cytometry, refers to: annexin V- PI+ | 2 µM, 24 h | – | necrotic cells | 2.79%
CC(C)(c1ccc(O)cc1)c1ccc(O)cc1 | HepG2 spheroids | Hoechst flow cytometry | 1 µM, 96 h | – | S phase cells | 11.7 ± 4.22%
COc1cc(O)c2c(c1)C(=O)c1cc(C)cc(O)c1C2=O | HepaRG co-cultured with HK-2 | MTT | 16.67 µM, 48 h | relative to: untreated control | cell viability | 95.3 ± 5.75%
COc1cc2ncnc(Nc3ccc(Oc4ccccc4)cc3C)c2cc1OC.O=C(O)C(F)(F)F | COLO 205 (BRAF V600E) | resazurin | 1 µM, 72 h, together with: trametinib 0 nM | – | fractional effect | 22%
O=C(/C=C/C#Cc1cccc(NS(=O)(=O)c2ccccc2)c1)NO | OCI-Ly1 | – | 1 µM, 120 h | – | viability | 32.1%
CN1C(C(=O)Nc2ccccn2)=C(O)c2sc(Cl)cc2S1(=O)=O | COS-7 | WST-8 | 30 µM, 24 h, 0.1% DMSO, unit not given | relative to: vehicle control | metabolic activity | 0.96 ± 0.02
COc1cc(/C=C/C(=O)N2CCC=CC2=O)cc(OC)c1OC | MDA-MB-468 | quantitative RT-PCR, refers to: NFE2L1 | 30 µM, 8 h | relative to: untreated cells | mRNA level | 53.4 ± 0.8%
Cn1cc(-c2ccc(-c3cncc(Cl)c3N3CCC4(CCNC4=O)CC3)cc2)cn1 | COLO 205 | gene expression, microarray, refers to: PNRC1 mRNA | concentration not given, 2 h | relative to: untreated cells | log2 fold change | 1.53
COc1cc2c(c(OC)c1OC)C(=O)c1c(cc(C)c(O)c1OC)C2=O | HepaRG co-cultured with HK-2 | MTT | 33.33 µM, 48 h | relative to: untreated control | cell viability | 81.3 ± 9.1%
NC(=O)c1ccc(I)c([N+](=O)[O-])c1 | OCI-Ly1 | – | 1 µM, 120 h | – | viability | 161%
COc1cnc2cccc(N3CCc4c(cc(Cn5ccnc5C)cc4-c4cn(C)nc4C(F)(F)F)C3=O)c2c1 | SW1417 | cell growth, inhibitor | 120 h | – | EC50 | 1.86 µM
O=C(/C=C/C=C/C=C/C1CCCCC1)NC1=C[C@@](O)(/C=C/C=C/C=C/C(=O)NC2=C(O)CCC2=O)[C@@H]2O[C@@H]2C1=O | snu61 | cell growth, inhibitor, CellTiter-Glo luminescence | 78 h | relative to: day 0 cell count | GI50 | 18.7 µM
COc1ccc(CCc2nc3cc(-c4c(C)noc4C)ccc3n2C[C@H](C)N2CCOCC2)cc1Cl | OCI-Ly1 | – | 0.5 µM, 120 h | – | viability | 119%
CCn1cc(-c2cc(Cn3ccoc3=N)cc3c2CCN([C@@H](C)c2cc(OC)ccn2)C3=O)c(C(F)(F)F)n1 | HSC-4 | cell growth, inhibitor | 120 h | – | EC50 | > 30 µM

For quick reference, copied from above:
Structure (SMILES) | cell line | assay | conditions | scale | quantity | result
O=[N+]([O-])c1ccc(O)cc1 | human cells | reporter gene, agonist, luciferase reporter | – | relative to: positive control | fitted curve top | 0%
CCCCCCCC(=O)c1cc(OC)c(OC)c(OC)c1CC(=O)OCC | COS-7 | – | 10 µM, 24 h, 0.1% DMSO, unit not given | relative to: vehicle control | necrotic cells | 1.04 ± 0.25
C=CCNC1=C2C[C@@H](C)C[C@H](OC)[C@H](O)[C@@H](C)/C=C(\C)[C@H](OC(N)=O)[C@@H](OC)/C=C\C=C(/C)C(=O)NC(=CC1=O)C2=O | human cells | plate-normalised | concentration not given, hit retest | relative to: vehicle controls, SDs below control | MyBP-C level change | 5.71 SD
Nc1ncn([C@H]2C[C@H](O)[C@@H](CO)O2)c(=O)n1 | OCI-Ly1 | – | 1 µM, 120 h | – | viability | 18.2%
